# Literature values that unrelated publications cite.
# Each line is one published result; not all experiments were run side by side. Numbers after ± are the reported error.
# pyrG: pyrG (Escherichia coli, UniProt P0A7E5)
# Chain of UniProt P0A7E5 (whole entry, looked up): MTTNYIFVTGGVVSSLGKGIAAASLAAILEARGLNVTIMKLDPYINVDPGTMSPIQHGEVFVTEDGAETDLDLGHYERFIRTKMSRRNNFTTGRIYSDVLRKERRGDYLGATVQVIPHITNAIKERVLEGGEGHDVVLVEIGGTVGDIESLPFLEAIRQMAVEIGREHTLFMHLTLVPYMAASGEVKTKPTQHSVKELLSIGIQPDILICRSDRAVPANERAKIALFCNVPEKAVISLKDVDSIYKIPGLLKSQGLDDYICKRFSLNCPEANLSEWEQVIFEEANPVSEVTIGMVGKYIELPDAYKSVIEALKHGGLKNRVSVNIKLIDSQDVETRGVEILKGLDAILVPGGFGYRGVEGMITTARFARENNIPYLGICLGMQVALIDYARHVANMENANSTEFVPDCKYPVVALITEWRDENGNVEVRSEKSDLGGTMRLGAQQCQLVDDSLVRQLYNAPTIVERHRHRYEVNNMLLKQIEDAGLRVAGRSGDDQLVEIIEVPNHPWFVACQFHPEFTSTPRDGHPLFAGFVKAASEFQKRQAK
SMILES,target or system,assay,test system,conditions,how to read,measurement,value
Nc1ncn([C@@H]2O[C@H](CO)[C@@H](O)[C@H]2O)c(=O)n1,HIV-1,infectivity,,,,EC50,57 µM
c1c[nH]cn1,catalase,binding,,pH 7,,Kd,no binding
CCCCCCCOC(=O)NC1=NC(=O)N([C@H]2C[C@H](O)[C@@H](CO)O2)CN1,HIV-1,,human,"dose not given, clinical trials",,tolerability,not toxic
CC(C)(C)[C@H](NC(=O)C(F)(F)F)C(=O)N1C[C@H]2[C@@H]([C@H]1C(=O)N[C@H](C#N)C[C@@H]1CCNC1=O)C2(C)C,,,"human, plasma",,,fraction unbound,0.31
Nc1ccn([C@@H]2O[C@H](COP(=O)(O)OP(=O)(O)OP(=O)(O)O)[C@@H](O)[C@H]2F)c(=O)n1,pyrG,"enzyme activity, inhibitor",,"wild type, added: UTP 0.20 mM",,IC50,600 µM
CC(=O)c1c(O)c(C)c(O)c2c1OC1=CC(=O)C(C(C)=O)C(=O)C12C (centres unmarked),glutathione reductase,inhibitor,,,,Ki,210 ± 100 µM
Nc1ccn([C@@H]2O[C@H](COP(=O)(O)OP(=O)(O)OP(=O)(O)O)[C@@H](O)[C@H]2O)c(=O)n1,pyrG,"enzyme activity, inhibitor",,"wild type, added: UTP 0.20 mM",,IC50,260 µM
OCCN1CCN(CCC=C2c3ccccc3Sc3ccc(C(F)(F)F)cc32)CC1,MCF7,"microarray, Connectivity Map, refers to: INSIG1 mRNA",,"concentration not given, 6 h",reference: DMSO,fold change,2.07
